Measurements of several laboratories.
Each numbered part is a random draw from the data of one study; scales do not carry over between parts. “And” joins repeats or separate records; there may be more than shown.
Chain of UniProt Q13523 (whole entry, looked up): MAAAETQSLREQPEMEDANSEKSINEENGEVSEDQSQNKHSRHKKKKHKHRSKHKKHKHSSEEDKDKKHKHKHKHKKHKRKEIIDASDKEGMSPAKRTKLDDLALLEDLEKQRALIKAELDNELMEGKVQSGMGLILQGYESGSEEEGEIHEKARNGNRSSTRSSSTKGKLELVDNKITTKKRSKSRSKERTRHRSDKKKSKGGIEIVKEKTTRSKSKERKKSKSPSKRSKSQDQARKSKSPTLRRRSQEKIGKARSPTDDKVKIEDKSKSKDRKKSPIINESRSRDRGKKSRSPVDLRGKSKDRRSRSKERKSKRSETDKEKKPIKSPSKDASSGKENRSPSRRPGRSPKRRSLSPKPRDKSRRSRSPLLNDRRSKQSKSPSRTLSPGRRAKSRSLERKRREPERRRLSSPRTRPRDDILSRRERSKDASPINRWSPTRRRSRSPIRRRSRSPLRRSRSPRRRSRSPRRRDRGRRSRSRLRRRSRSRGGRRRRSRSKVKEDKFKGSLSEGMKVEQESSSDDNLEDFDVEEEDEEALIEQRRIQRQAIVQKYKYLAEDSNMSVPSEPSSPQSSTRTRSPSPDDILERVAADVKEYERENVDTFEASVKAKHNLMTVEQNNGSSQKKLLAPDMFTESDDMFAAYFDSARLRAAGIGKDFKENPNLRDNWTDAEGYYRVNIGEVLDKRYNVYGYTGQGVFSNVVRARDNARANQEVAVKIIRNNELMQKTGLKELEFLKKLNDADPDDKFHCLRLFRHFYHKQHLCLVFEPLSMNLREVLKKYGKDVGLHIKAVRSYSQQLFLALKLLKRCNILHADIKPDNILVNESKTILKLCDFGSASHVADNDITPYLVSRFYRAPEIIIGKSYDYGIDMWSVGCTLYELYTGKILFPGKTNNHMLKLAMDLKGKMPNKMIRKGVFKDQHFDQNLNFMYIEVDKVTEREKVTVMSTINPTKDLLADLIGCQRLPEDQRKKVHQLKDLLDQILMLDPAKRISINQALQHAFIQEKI

Series 1
Compound: Cn1cncc1[C@](O)(COc1ccc(C#N)cc1-c1ccc(OC(F)(F)F)cc1)c1ccc(C#N)cc1
Effect on: cell-free assay
Method: competition with immobilised ligand
Concentration: 1 µM
The remaining binding was 100% (Serine/threonine-protein kinase PRP4 homolog (PRPF4B, Homo sapiens, UniProt Q13523)).
For Tyrosine-protein kinase ABL1, phosphorylated (ABL1, Homo sapiens, UniProt P00519, H396P): remaining binding read 100%.
Epidermal growth factor receptor (EGFR, Homo sapiens, UniProt P00533, L861Q) — remaining binding: 71%.
The remaining binding was 95% (Tyrosine-protein kinase SYK (SYK, Homo sapiens, UniProt P43405)).

Series 2
Target: DNA polymerase theta, ATPase domain (POLQ, Homo sapiens, UniProt O75417)
Chain of UniProt O75417 (whole entry, unmodified, looked up): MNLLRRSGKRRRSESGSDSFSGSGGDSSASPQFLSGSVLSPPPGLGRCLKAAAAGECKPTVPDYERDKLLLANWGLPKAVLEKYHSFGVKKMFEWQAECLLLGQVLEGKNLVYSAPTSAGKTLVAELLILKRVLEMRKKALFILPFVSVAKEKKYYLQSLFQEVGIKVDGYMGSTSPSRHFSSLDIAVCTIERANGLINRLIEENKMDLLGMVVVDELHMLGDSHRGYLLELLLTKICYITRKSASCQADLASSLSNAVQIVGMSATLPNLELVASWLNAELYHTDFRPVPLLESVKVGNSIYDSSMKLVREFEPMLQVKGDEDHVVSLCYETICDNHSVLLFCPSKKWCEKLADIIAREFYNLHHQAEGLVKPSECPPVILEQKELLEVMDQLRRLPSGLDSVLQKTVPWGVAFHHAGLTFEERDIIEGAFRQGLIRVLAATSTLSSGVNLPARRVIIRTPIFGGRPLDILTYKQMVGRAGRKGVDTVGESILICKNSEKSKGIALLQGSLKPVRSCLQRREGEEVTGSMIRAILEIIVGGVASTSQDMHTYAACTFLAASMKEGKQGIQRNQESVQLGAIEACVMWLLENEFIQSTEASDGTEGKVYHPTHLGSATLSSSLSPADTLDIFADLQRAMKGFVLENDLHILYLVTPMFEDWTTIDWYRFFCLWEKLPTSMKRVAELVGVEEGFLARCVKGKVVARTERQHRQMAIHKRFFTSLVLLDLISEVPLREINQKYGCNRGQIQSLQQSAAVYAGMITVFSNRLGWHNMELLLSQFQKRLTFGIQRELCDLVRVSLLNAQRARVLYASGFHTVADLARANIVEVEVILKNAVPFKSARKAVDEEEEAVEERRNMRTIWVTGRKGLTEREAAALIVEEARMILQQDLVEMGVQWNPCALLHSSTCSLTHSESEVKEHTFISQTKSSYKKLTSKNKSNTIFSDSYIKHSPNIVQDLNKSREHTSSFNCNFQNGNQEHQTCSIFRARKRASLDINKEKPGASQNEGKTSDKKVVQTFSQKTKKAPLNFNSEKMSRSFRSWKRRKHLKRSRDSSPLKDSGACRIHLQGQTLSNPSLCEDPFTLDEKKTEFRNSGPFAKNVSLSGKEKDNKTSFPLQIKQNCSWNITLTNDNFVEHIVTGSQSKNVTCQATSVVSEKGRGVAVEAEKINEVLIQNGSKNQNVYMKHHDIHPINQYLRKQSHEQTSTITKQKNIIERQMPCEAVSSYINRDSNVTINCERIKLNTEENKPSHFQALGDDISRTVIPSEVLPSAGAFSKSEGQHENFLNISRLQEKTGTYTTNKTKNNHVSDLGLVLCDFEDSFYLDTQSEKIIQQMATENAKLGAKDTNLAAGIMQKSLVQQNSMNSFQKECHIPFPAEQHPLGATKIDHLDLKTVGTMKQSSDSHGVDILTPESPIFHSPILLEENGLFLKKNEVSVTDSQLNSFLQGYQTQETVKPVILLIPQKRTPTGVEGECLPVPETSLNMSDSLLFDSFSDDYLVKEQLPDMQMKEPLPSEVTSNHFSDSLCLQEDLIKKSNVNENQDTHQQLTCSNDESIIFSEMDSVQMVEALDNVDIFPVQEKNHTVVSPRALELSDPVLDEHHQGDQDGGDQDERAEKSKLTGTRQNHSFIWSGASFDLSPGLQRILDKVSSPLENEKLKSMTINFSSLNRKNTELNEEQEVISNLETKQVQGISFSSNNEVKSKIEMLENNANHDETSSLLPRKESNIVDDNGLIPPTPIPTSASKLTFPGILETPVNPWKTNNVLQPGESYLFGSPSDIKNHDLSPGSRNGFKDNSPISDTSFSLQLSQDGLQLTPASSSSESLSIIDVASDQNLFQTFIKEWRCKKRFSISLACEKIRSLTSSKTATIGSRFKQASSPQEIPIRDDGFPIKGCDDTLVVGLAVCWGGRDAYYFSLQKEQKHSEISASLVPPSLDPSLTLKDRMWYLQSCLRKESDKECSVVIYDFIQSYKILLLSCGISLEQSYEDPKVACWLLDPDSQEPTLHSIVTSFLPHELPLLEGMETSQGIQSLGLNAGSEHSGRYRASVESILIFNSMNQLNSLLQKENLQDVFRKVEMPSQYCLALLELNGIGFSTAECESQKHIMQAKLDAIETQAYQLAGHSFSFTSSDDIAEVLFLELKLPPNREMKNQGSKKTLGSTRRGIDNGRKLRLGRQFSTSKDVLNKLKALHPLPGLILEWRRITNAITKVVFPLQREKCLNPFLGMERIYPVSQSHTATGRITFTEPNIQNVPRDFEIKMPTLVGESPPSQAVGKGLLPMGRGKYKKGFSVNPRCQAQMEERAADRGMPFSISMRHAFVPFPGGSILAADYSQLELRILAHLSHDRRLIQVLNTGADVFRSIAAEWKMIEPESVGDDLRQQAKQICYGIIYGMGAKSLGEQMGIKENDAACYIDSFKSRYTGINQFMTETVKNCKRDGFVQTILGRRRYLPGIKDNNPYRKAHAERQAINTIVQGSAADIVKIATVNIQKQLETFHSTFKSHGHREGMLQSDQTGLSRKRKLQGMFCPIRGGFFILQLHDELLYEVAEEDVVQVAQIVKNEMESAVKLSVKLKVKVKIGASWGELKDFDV
Effect on: enzyme activity
Action: inhibitor
Concentration: 77 µM
Relative to: untreated
`CC1(C)OC(=O)NC1=O` has a remaining activity of 98.1%.
`CC1(C)CCC(CN2CCN(c3ccc(C(=O)NS(=O)(=O)c4ccc(NCC5CCOCC5)c([N+](=O)[O-])c4)c(Oc4cnc5[nH]ccc5c4)c3)CC2)=C(c2ccc(Cl)cc2)C1` gave a remaining activity of 95.5%.
`COc1ccccc1N1CCN(CCN(C(=O)c2ccc(F)cc2)c2ccccn2)CC1` has a remaining activity of 101%.
`Cn1cc(C(=O)OCC2CCN(CCNS(C)(=O)=O)CC2)c2ccccc21` has a remaining activity of 100%.
With `COc1ccc(/C=C/C(=O)Nc2ccccc2C(=O)O)cc1OC` the remaining activity was 88% and 96.8%.
The remaining activity of `Cn1c(=O)[nH]c2ncn(C)c2c1=O` is reported as 101%.
For `O=S(=O)(O)CCS`, the remaining activity was 91.1%.
For `CNCCC=C1c2ccccc2C=Cc2ccccc21`, the remaining activity was 109%.

Series 3
Target: HLA class I histocompatibility antigen, C alpha chain, allele C*04:01 (Homo sapiens, UniProt P10321)
Effect on: peptide-MHC binding
Form: peptide
Concentration: concentration not given
`LEYFQFVKKLL`: binding “inactive”.
For `YFDDVTAFL`, binding read “active”.
For `MPYHGYHII`, binding read “inactive”.
`WEMRAGREI` — result for binding: “inactive”.

Mixed results
For `CC(C)n1cnc(-c2ccc(F)cc2)c1-c1ncc(C(=O)Nc2ccc(N3CCN(C)CC3)cc2)[nH]1`, “patients with Synovitis TEAE” read 0% (phase 2a clinical trial; patients with idiopathic pulmonary fibrosis; 60 mg once daily).

A few entries again (series 2):
The remaining activity of `Cn1c(=O)[nH]c2ncn(C)c2c1=O` is reported as 101%.
`COc1ccccc1N1CCN(CCN(C(=O)c2ccc(F)cc2)c2ccccn2)CC1` has a remaining activity of 101%.
